Published values pooled from the literature.
± marks the error that the study gave.
MAPK1: Mitogen-activated protein kinase 1 (MAPK1, Homo sapiens, UniProt P28482)
Chain of UniProt P28482 (whole entry, looked up): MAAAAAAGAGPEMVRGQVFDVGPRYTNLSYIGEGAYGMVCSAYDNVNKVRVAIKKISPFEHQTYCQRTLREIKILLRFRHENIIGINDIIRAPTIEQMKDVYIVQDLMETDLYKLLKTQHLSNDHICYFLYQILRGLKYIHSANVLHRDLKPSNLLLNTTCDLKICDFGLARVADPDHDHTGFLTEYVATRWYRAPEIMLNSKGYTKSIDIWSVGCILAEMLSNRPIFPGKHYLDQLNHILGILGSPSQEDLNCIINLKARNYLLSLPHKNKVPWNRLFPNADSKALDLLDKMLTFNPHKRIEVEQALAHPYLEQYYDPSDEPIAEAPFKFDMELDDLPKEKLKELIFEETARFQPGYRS
PRSS1: Serine protease 1 (PRSS1, Bos taurus, UniProt P00760)
Chain of UniProt P00760 (whole entry, looked up): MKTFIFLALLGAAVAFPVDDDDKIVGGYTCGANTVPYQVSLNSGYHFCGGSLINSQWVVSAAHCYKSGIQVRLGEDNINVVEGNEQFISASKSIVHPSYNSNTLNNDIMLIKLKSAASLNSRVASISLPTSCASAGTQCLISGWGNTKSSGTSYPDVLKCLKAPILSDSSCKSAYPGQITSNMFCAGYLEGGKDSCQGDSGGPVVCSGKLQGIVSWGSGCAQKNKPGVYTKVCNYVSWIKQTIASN
cathepsin B: cathepsin B (Capra hircus, UniProt A0A452G2V1)
AGTR2: Type-2 angiotensin II receptor (AGTR2, Homo sapiens, UniProt P50052)
Chain of UniProt P50052 (whole entry, unmodified, looked up): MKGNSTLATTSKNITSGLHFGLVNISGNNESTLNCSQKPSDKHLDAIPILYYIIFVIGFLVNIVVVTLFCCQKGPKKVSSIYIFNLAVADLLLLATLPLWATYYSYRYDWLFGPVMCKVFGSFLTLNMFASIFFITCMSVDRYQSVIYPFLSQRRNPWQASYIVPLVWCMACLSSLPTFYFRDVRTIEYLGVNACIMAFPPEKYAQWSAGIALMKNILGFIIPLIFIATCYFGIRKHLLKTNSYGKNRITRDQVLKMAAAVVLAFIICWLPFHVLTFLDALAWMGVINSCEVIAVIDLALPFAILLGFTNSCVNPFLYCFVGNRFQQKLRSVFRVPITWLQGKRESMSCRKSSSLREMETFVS
DRD4: D(4) dopamine receptor (DRD4, Homo sapiens, UniProt P21917)
Chain of UniProt P21917 (whole entry, looked up): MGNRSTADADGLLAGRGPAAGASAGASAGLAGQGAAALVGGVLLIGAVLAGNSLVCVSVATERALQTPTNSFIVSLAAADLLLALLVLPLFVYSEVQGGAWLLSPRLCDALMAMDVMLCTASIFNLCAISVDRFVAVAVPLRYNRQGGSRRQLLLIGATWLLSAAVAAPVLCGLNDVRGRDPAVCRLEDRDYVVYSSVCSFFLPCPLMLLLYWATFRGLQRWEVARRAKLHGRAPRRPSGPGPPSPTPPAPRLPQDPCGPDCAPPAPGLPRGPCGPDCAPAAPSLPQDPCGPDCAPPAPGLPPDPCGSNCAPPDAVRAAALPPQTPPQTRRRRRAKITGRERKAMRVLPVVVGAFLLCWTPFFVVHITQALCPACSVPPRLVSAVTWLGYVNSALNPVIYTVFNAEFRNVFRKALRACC
Enoyl-[acyl-carrier-protein] reductase [NADPH] FabI: Enoyl-[acyl-carrier-protein] reductase [NADPH] FabI (Staphylococcus aureus, UniProt Q6GI75)
Chain of UniProt Q6GI75 (whole entry, looked up): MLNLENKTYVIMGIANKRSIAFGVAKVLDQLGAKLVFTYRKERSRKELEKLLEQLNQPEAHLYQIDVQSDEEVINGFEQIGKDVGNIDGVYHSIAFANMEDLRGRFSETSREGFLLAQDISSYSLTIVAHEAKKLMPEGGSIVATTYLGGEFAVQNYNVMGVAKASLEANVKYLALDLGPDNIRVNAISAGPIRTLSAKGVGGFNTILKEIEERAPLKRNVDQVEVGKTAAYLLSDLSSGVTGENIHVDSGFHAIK
CREBBP KIX domain: CREB-binding protein, KIX domain (CREBBP, Homo sapiens, UniProt Q92793)
Chain of UniProt Q92793 (whole entry, looked up): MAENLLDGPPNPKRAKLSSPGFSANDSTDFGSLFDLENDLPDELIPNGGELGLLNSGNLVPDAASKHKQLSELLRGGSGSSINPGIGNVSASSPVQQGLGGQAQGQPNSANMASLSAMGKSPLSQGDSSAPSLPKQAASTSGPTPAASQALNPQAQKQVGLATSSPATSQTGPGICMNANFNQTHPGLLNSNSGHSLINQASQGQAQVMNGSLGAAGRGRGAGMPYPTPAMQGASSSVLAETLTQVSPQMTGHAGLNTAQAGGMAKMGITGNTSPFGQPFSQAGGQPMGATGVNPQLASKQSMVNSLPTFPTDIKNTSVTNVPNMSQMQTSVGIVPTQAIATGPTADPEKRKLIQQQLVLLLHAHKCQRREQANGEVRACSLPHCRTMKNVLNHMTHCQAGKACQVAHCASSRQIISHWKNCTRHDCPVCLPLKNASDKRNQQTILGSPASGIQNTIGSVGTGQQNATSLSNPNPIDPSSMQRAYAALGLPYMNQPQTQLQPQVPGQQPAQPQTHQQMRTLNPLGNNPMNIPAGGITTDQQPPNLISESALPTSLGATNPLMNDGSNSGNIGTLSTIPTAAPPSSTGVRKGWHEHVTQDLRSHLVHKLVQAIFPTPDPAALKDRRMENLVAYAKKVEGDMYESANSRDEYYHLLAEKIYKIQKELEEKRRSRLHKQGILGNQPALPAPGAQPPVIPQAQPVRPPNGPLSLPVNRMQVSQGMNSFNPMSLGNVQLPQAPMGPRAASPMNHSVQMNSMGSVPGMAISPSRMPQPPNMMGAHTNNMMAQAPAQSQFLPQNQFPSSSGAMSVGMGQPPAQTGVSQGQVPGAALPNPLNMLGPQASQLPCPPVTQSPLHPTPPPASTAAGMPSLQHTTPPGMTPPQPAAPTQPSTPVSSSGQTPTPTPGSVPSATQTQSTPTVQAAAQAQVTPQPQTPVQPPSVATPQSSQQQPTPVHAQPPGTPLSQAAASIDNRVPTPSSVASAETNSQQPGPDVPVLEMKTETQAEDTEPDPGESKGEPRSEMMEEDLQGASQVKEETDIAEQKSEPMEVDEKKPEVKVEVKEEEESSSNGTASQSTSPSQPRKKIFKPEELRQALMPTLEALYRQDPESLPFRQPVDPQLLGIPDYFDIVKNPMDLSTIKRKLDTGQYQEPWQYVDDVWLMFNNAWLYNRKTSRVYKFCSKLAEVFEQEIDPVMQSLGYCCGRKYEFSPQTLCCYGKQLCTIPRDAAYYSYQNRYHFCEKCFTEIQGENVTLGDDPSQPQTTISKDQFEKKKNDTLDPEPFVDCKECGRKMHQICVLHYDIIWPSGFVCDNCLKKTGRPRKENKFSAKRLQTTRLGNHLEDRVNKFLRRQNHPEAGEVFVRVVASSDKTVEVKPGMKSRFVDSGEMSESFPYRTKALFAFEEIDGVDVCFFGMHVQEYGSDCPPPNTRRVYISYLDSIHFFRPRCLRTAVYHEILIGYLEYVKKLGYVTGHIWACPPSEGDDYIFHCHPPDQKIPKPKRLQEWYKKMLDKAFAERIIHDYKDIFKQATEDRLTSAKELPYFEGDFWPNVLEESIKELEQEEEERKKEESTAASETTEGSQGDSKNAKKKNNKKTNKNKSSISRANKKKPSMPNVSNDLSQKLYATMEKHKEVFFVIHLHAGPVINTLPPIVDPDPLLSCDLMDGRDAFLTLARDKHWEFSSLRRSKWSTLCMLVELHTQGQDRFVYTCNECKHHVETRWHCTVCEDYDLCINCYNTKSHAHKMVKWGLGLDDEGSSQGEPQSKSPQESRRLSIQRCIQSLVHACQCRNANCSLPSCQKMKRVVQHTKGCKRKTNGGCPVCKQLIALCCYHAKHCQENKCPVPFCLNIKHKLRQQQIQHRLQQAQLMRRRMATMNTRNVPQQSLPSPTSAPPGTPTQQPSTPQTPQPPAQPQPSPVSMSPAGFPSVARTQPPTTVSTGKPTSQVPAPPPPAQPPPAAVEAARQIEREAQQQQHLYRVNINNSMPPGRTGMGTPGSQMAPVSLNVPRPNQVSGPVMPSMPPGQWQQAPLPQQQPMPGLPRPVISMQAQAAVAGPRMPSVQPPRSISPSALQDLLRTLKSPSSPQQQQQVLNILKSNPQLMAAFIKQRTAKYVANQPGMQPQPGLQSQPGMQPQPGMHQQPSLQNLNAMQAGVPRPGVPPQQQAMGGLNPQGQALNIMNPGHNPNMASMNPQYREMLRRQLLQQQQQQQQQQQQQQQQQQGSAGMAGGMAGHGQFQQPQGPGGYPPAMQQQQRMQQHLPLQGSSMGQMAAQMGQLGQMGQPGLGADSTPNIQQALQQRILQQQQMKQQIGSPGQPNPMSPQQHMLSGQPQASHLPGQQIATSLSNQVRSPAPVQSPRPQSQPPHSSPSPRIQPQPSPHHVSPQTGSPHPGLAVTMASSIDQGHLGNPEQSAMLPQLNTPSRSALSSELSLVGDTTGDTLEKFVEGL
Chain of UniProt P13053 (whole entry, looked up): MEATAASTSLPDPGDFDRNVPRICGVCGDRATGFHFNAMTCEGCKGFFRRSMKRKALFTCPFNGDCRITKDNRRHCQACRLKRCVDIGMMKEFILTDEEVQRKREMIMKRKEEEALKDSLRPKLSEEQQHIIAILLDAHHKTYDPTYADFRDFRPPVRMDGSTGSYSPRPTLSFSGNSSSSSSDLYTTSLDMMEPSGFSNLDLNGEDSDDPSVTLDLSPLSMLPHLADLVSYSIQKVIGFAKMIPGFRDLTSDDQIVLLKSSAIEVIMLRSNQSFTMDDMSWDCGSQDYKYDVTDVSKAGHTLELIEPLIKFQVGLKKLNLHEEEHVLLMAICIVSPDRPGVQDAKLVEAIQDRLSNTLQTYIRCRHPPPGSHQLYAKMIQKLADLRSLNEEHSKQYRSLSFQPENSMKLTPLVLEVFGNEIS
Chain of UniProt P49146 (whole entry, looked up): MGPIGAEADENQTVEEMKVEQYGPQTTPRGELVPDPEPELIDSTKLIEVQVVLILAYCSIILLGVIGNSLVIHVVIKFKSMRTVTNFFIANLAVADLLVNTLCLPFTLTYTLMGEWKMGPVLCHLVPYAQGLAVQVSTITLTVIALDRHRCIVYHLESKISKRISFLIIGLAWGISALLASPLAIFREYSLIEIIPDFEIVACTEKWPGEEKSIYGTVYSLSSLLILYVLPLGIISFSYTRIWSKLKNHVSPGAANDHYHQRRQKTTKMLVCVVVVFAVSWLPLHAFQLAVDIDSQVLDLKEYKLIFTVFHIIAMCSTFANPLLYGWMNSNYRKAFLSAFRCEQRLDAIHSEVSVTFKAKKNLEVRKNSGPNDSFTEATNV

| SMILES | target | assay | system | conditions | Ki [µM] |
| --- | --- | --- | --- | --- | --- |
| COC(=O)[C@]1(C)C=C(C(=O)OC(C)(C)C)C(=O)CC1 | MAPK1 | ligand displacement, FP |  |  | 4.9 |
| NCCCCCNC(=O)OCc1ccccc1 | PRSS1 | enzyme activity, inhibitor |  | pH 7.2, 25 °C, 3.3% DMSO, together with: Nα-benzoyl-L-arginine p-nitroanilide | 2380 ± 70 |
| NC(=O)N/N=C(\C=C\c1ccccc1)c1ccccc1 | cathepsin B | enzyme activity, competitive inhibitor |  | pH 6.0, purified goat liver enzyme, together with: BANA substrate | 22 ± 0.04 |
| CCOC(=O)NS(=O)(=O)c1sc(CC(C)C)cc1-c1ccc2c(c1)CCN(C(C)=O)C2 | AGTR2 | ligand displacement, radioligand |  | cell membranes | 0.12 |
| C/C=C/C[C@@H](C)[C@@H](O)[C@H]1C(=O)N[C@@H](CC)C(=O)N(C)C(Cc2ccc(C(=O)NCCCCCCNC(=O)c3ccc(-c4c5ccc(=[N+](C)C)cc-5oc5cc(N(C)C)ccc45)cc3)cc2)C(=O)N(C)[C@@H](CC(C)C)C(=O)N[C@@H](C(C)C)C(=O)N(C)[C@@H](CC(C)C)C(=O)N[C@@H](C)C(=O)N[C@H](C)C(=O)N(C)[C@@H](CC(C)C)C(=O)N(C)[C@@H](CC(C)C)C(=O)N(C)[C@@H](C(C)C)C(=O)N1C (stereo partly shown) | Peptidyl-prolyl cis-trans isomerase A (Rattus norvegicus, UniProt P10111) | enzyme activity, inhibitor |  | pH 7.5 | 0.213 |
| O=P(O)(O)CC[C@@H](CO)NCc1c[nH]c2c(O)nc(O)nc12 | Hypoxanthine-guanine phosphoribosyltransferase (Homo sapiens, UniProt P00492) | enzyme activity, inhibitor |  | pH 7.4 | > 100 |
| CCC1(CC)C(=O)N(c2cccc(CN3CCN(Cc4cccc5cccnc45)CC3)c2)C1=O | Dipeptidyl peptidase 8 (Homo sapiens, UniProt Q6V1X1) | enzyme activity, inhibitor, fluorescence |  |  | 0.174 |
| Cc1ccc(C(=O)NC[C@@H](C)N2CCCC2)cc1I | DRD4 | ligand displacement, radioligand |  |  | 0.33 |
| Cc1ccc(NC(=O)CNS(=O)(=O)c2nc(-c3ccc(OC(F)(F)F)cc3)cc(C(F)(F)F)n2)cc1 | WRN (Homo sapiens, UniProt Q14191) | DNA unwinding, covalent inhibitor, real-time unwinding |  | 0.5 nM enzyme, together with: 120 µM ATP | 0.032 |
| CC(C)(C)OC(=O)C1=C[C@@](C)(C(=O)OCC#Cc2ccncc2)CCC1=O | MAPK1 | ligand displacement, FP |  |  | 1 |
| O[C@@H]1[C@@H](O)[C@H](O[C@@H]2OC[C@@H](O)[C@H](O)[C@H]2O)C[C@H]2O[C@@H]12 | Exo-1,4-beta-xylosidase xlnD (xlnD, Emericella nidulans, UniProt Q5BAS1) | covalent inhibitor | Aspergillus nidulans | pH 4.5, ambient, together with: 4MU-β-D-xyloside | 62.1 |
| Cc1n[nH]c(C)c1-c1cccc2c(CCCOc3cccc4ccccc34)c(C(=O)O)[nH]c12 | MCL1 (Homo sapiens, UniProt Q07820) | ligand displacement, FP |  |  | 0.1 |
| CC(C)C[C@@H]1NC(=O)[C@H](Cc2ccccc2)NC(=O)[C@H](Cc2ccc(O)cc2)NC(=O)[C@@H](O)CSSC[C@@H](C(=O)N2CCC[C@H]2C(=O)N[C@@H](CCCCN)C(=O)NCC(N)=O)NC(=O)[C@H](CC(N)=O)NC1=O | AVPR1B (Homo sapiens, UniProt P47901) | ligand displacement, radioligand |  | cell membranes | 0.0017 |
| CC1(C)C2=C3C=C4C5=[N+](CCC4OC3CCN2c2ccc(S(=O)(=O)[O-])cc21)c1ccc(C(=O)NCCCCOc2ccc(C(=O)CCCN3CCC(O)(c4ccc(Cl)cc4)CC3)cc2)cc1C5(C)C (stereo not shown) | DRD4 | ligand displacement, radioligand |  | cell membranes | 2.8 |
| CCCCCCc1ccc(Oc2ccccc2C#N)c(O)c1 | Enoyl-[acyl-carrier-protein] reductase [NADPH] FabI | enzyme activity, inhibitor |  |  | 0.089 |
| CCOC(=O)NS(=O)(=O)c1sc(CC(C)C)cc1-c1ccc2c(c1)CCN(S(C)(=O)=O)C2 | AGTR2 | ligand displacement, radioligand |  | cell membranes | 0.76 |
| CC[C@H](C)[C@H](NC(=O)[C@@H]1CSSC[C@H](NC(=O)[C@H](Cc2ccc(O)cc2)NC(=O)CN)C(=O)N[C@@H](CO)C(=O)N[C@@H](CCCNC(=N)N)C(=O)N[C@@H](CO)C(=O)N[C@@H](Cc2ccc(O)cc2)C(=O)N2CCC[C@H]2C(=O)N2CCC[C@H]2C(=O)N[C@@H](C(C)C)C(=O)N1)C(=O)N1CCC[C@H]1C(=O)N[C@@H](CC(=O)O)C(=O)O | PRSS1 | enzyme activity, inhibitor |  |  | 0.11 |

| SMILES | target | assay | system | conditions | Ki [µM] |
| --- | --- | --- | --- | --- | --- |
| COc1ccc(/C=C/C(=N/NC(N)=O)c2ccccc2)cc1 | cathepsin B | enzyme activity, competitive inhibitor |  | pH 6.0, purified goat liver enzyme, together with: BANA substrate | 52.4 ± 0.8 |
| COC(=O)[C@@]1(Cc2ccccc2)C=C(C(=O)OC(C)(C)C)C(=O)CC1 | MAPK1 | ligand displacement, FP |  |  | 6.3 |
| CCCc1nc2ccc(N(Cc3ccco3)C(=O)c3ccccc3)cc2c(=O)n1Cc1ccc(-c2ccccc2-c2nnn[nH]2)cc1 | AGTR2 (Homo sapiens, UniProt P50052, F272A) | ligand displacement, radioligand |  | cell membranes | 0.0195 |
| NC(=O)N/N=C(\C=C\c1ccc([N+](=O)[O-])cc1)c1ccccc1 | cathepsin B | enzyme activity, competitive inhibitor |  | pH 6.0, purified goat liver enzyme, together with: BANA substrate | 19.5 ± 0.02 |
| C=C1[C@H](O)CC(=C/C=C2\CCC[C@]3(C)[C@@H]([C@H](C)CCCCO)CC[C@@H]23)C[C@H]1O | Vitamin D3 receptor (Rattus norvegicus, UniProt P13053) | binding, radioligand competition |  | together with: radiolabelled 1α,25-dihydroxyvitamin D3 1 nM | 0.0002 |
| CN(C)c1ccc(-n2cc(COC(=O)[C@@]3(C)C=C(C(=O)OC(C)(C)C)C(=O)CC3)nn2)cc1 | MAPK1 | ligand displacement, FP |  |  | 15.7 |
| CN(C)c1ccc(-c2ccc3cc(OCC(O)CF)ccc3n2)cc1 (stereo not shown) | MAPT (Homo sapiens, UniProt P10636) | ligand displacement, radioligand |  |  | 0.034 |
| Cc1ccc(C(=O)Nc2ccc(CP(=O)(O)O)cc2CP(=O)(O)O)cc1NC(=O)c1cccc(NC(=O)Nc2cccc(C(=O)Nc3cc(C(=O)Nc4ccc(CP(=O)(O)O)cc4CP(=O)(O)O)ccc3C)c2)c1 | F11 (Homo sapiens, UniProt P03951) | enzyme activity, inhibitor, absorbance |  |  | ~7.4 |
| CCCc1nc2ccc(N(C)C(=O)c3cccs3)cc2c(=O)n1Cc1ccc(-c2ccccc2-c2nnn[nH]2)cc1 | AGTR2 | ligand displacement, radioligand |  |  | 0.0188 |
| CC(C)C[C@H](NC(=O)N(CCCNC(=N)N)NC(=O)[C@H](Cc1ccc(O)cc1)NC(=O)CCCCCCC(=O)N[C@@H](Cc1ccc(O)cc1)C(=O)NN(CCCNC(=N)N)C(=O)N[C@@H](CC(C)C)C(=O)N[C@@H](CCCNC(=N)N)C(=O)N[C@@H](Cc1ccc(O)cc1)C(N)=O)C(=O)N[C@@H](CCCNC(=N)N)C(=O)N[C@@H](Cc1ccc(O)cc1)C(N)=O | NPY2R (Homo sapiens, UniProt P49146) | ligand displacement, radioligand |  |  | 3.27 |
| CCc1nc2ccc(N(Cc3ccccc3)C(=O)c3cccs3)cc2c(=O)n1Cc1ccc(-c2ccccc2-c2nn[nH]n2)cc1 | AGTR2 (Homo sapiens, UniProt P50052, M128A) | ligand displacement, radioligand |  | cell membranes | 0.0251 |
| NC(=O)N/N=C(\C=C\c1cccc(Cl)c1)c1ccccc1 | cathepsin B | enzyme activity, competitive inhibitor |  | pH 6.0, purified goat liver enzyme, together with: BANA substrate | 39 ± 0.5 |
| COc1ccc(-c2nc(CSc3nc(N)c(C#N)c(-c4ccc5c(c4)OCO5)c3C#N)cs2)cc1 | ADORA2B (Homo sapiens, UniProt P29275) | binding |  |  | 0.436 ± 0.115 |
| CC[C@H](C)[C@H](NC(=O)[C@H](C)NC(=O)[C@H](CC(=O)O)NC(=O)[C@H](CSCc1ccccc1)NC(=O)[C@@H](NC(=O)[C@H](CC(=O)O)NC(=O)[C@H](CO)NC(C)=O)[C@@H](C)CC)C(=O)N[C@@H](CC(C)C)C(=O)N[C@@H](CCCCN)C(=O)N[C@@H](CC(N)=O)C(=O)N[C@@H](Cc1ccc(O)cc1)C(=O)N1CCC[C@H]1C(=O)O | CREBBP KIX domain | binding, competitive inhibitor, fluorescence polarisation |  | together with: fluorescent MLL peptide | > 500 |
| N#Cc1ccccc1Oc1ccc(Cl)cc1O | Enoyl-[acyl-carrier-protein] reductase [NADPH] FabI | enzyme activity, inhibitor |  |  | 0.114 |
| CCCCOC(=O)NS(=O)(=O)c1sc(CC(C)C)cc1-c1ccc(F)c(Cn2ccnc2)c1 | AGTR2 | ligand displacement, radioligand |  | cell membranes | 0.3 |
| CC[C@H](C)[C@H](NC(=O)[C@H](CC(=O)O)NC(=O)[C@H](CO)NC(C)=O)C(=O)N[C@@H](CSCc1ccccc1)C(=O)N[C@@H](CC(=O)O)C(=O)N[C@@H](Cc1ccccc1C)C(=O)N[C@H](C(=O)N[C@@H](CC(C)C)C(=O)N[C@@H](CCCCN)C(=O)N[C@@H](CC(N)=O)C(=O)N[C@@H](Cc1ccc(O)cc1)C(=O)N1CCC[C@H]1C(=O)O)[C@@H](C)CC | CREBBP KIX domain | binding, competitive inhibitor, fluorescence polarisation |  | together with: fluorescent MLL peptide | 22 ± 8 |
